Published values from different studies.
Values joined by “and” are separate records of one study, mostly repeats; a detail may differ.
B1: aspC A106G/A218G/F210I/I29V/I33V/I68L/I71L/N30D/N64T/S135A/T100S/V136I/V375I (Escherichia coli, UniProt P00509); chain MFENITAAPADPILGLADLFRADERPGKVDLGVGVYKDETGKTPVLTSVKKAEQYLLENETTKTYLGLDGLPEFGRCTQELLFGKGSALINDKRARTAQSPGGTGGLRVAADFLAKNTSVKRVWVSNPSWPNHKAIFNSAGLEVREYAYYDAENHTLDFDALINSLNEAQAGDVVLFHGCCHNPTGIDPTLEQWQTLAQLSVEKGWLPLIDFAYQGFGRGLEEDAEGLRAFAAMHKELIVASSYSKNFGLYNERVGACTLVAADSETVDRAFSQMKAAIRANYSNPPAHGASVVATILSNDALRAIWEQELTDMRQRIQRMRQLFVNTLQEKGANRDFSFIIKQNGMFSFSGLTKEQVLRLREEFGVYAVASGRINVAGMTPDNMAPLCEAIVAVL
B2: enzyme I20A (Nitrosopumilus maritimus, UniProt A9A5X4); chain MDSQKFDSIIFDCDGVLVDATQSYDKTIDKTCRYVLKEFAKIDSITIDHKIIDGFKSSGGFNDEVDLVYAAILSLYTANKLNKKPSEFIYDVISNTDKTGIRSVQSYLESIYDVSEFLSKLGSLGDRHNNPVYSIFDQFFFGPELYGKLFDKQSKFSEEGMISNDKVILSVSLLETLQKEFGKKIAVVTGRGIESIRYSLKDMMDYFDTKNSAFLEDEPRELAKPNPATLIRAIQSMESKNCLYVGDSMEDYMMAKDAAQAGHSTTFCAIVGTSTNPEDRRKLFADSGVEMILESINDIPKVLNLV
B3: enzyme (Oryctolagus cuniculus, UniProt G1T386); chain MCAARMPPLAHIFRGTFVHSTWTCPMEVLRDHLLGVSDSGKIVFLEEASQQERLAKEWCFKPCEIRELSHHEFFMPGLVDTHIHAPQYFFAGSNVDLPLLEWLAKYTFPSEHKFRNIDFAEEVYTRVVRRTLKNGTTTACYFGTIHTDSSLLLAEITDKFGQRAFVGKVCMDLNDTVPEYKETTEESIKETERFVSEMFQRNYPRVKPIVTPRFSLSCSETLLVELGNIAKTHDLHIQSHISENRDEIEAVKNLYPSYKNYTDVYDKNKLLTNKTVMAHGCYLSAEELNTFSERGASISHCPNSNLSLSSGFLNVLEVLKHEVKIGLGTDIAGGYSSSMLDAIRRAVMVSNILLINKVNEKSLTLKEVFRLATLGGSQALGLDNEIGNFEVGKEFDALLINPKASDSPIDLFYGDFVGDISEAVIQKFLYLGDDRNIEEVYVGGKQVVPFSSSV
B4: SCO6712 Y229F (Streptomyces coelicolor, UniProt Q9XAL8); chain AKGITARTAPAGGEVRHLKMYAEKLADGQMGYGFEKGKASVPGPLIEVNEGDTLHIEFTNTMDVRASLHVHGLDYEISSDGTAMNKSDVEPGGTRTYTWRTHKPGRRDDGTWRPGSAGYWHYHDHVVGTEHGTGGIRNGLYGPVIVRRKGDVLPDATHTIVFNDMTINNRKPHTGPDFEATVGDRVEIVMITHGEFYHTFHMHGHRWADNRTGILTGPDDPSRVIDNKITGPADSFGFQIIAGEGVGAGAWMYHCHVQSHSDMGMVGLFLVKKPDGTIPGYEPHEHGGATAKSGESGEPTGGAAAHEHEH
UniProt Q9C969, sequence (whole entry, looked up): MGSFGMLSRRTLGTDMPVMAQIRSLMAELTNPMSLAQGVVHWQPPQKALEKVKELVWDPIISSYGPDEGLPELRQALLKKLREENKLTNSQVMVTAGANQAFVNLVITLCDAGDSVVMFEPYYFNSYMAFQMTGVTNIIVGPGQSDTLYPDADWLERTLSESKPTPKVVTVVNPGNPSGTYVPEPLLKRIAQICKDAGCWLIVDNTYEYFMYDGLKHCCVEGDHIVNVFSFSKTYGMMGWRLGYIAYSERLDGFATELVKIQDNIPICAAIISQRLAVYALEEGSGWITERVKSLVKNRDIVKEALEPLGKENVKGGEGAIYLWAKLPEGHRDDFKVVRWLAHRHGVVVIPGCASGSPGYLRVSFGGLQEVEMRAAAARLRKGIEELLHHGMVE
UniProt P00723, sequence (whole entry, looked up): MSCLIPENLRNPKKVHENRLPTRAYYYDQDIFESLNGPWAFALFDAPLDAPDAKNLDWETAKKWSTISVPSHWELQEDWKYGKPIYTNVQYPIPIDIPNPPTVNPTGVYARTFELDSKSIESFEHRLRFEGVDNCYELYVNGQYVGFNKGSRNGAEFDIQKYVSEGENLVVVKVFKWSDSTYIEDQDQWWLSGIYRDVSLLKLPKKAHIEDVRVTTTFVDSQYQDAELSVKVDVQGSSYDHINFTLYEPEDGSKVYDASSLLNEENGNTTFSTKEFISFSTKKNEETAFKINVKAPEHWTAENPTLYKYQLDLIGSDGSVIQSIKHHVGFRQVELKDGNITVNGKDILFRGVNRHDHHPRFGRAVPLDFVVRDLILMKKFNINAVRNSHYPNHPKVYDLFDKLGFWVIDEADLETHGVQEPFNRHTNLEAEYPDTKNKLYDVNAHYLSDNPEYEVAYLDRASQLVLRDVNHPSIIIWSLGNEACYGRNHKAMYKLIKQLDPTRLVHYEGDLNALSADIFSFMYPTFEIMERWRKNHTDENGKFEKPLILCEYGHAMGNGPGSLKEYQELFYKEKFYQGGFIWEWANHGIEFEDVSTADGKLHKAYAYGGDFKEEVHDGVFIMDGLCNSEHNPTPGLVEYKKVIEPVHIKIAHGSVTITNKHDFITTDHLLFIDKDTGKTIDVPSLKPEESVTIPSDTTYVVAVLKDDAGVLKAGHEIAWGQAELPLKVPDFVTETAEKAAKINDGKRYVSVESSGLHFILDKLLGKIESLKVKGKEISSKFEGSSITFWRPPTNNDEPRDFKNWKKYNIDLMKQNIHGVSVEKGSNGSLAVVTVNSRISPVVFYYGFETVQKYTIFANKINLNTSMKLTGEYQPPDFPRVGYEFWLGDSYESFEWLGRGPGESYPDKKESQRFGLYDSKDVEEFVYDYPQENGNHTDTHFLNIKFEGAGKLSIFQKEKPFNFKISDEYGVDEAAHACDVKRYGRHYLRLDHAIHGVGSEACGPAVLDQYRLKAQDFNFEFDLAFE
UniProt P0A9Q9, sequence (whole entry, looked up): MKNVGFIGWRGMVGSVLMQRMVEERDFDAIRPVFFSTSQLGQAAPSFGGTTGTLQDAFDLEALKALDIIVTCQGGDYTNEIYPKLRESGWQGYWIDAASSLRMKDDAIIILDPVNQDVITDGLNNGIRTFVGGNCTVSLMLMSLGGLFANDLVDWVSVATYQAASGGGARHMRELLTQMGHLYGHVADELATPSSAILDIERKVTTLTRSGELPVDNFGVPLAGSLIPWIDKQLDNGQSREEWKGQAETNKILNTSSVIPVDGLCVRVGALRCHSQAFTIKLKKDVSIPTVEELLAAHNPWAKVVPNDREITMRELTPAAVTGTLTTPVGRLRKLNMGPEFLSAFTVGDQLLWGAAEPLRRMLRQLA
UniProt O80449, sequence (whole entry, looked up): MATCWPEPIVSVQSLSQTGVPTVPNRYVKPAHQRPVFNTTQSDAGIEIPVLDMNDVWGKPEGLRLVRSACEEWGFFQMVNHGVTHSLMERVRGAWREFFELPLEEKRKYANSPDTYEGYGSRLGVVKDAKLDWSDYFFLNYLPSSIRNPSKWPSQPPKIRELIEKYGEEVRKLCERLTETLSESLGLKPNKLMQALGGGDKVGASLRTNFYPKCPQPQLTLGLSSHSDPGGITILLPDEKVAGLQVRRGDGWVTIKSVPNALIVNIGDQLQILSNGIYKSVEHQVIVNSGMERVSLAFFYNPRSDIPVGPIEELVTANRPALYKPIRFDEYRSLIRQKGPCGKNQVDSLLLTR
UniProt O31662, sequence (whole entry, looked up): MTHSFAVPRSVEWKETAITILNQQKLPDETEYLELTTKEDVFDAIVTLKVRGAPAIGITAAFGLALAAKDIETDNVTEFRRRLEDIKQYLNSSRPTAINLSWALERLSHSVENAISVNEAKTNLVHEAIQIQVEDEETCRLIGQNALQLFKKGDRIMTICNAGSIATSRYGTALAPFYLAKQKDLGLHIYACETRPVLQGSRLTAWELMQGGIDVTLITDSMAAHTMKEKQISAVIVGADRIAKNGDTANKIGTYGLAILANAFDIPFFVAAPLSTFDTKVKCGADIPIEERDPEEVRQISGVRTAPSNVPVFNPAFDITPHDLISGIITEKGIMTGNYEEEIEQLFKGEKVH

| Molecule | target or system | test | system | conditions | how to read | quantity | result |
| --- | --- | --- | --- | --- | --- | --- | --- |
| enzyme (Arabidopsis thaliana, UniProt Q9C969) | O=C(O)C(=O)Cc1ccccc1 | steady-state kinetics |  |  |  | Km | 38.5 µM and 66.2 µM |
| asd (Escherichia coli, UniProt P0A9Q9) | N[C@@H](CCC=O)C(=O)O | steady-state kinetics |  | pH 7.6, apparent, with: 1 mM NADP+ |  | Km | 310 µM |
| mtnA (Bacillus subtilis, UniProt O31662) | O=P(O)(O)O[C@H]1O[C@H](CO)[C@@H](O)[C@H]1O | steady-state kinetics |  | pH 7.5, 25 °C |  | Km | 9400 µM |
| GGWVEKETYY | human MAGI1-2/6 PDZ construct (MBP fusion) | automated holdup | peptide, crude extract | concentration not given, uncorrected, unit not given | relative to: biotin control resin, higher = stronger binding | binding intensity | 0.022 |
| B1 | N[C@@H](Cc1ccccc1)C(=O)O | steady-state kinetics |  | pH 7.5, 25 °C, with: PLP 20 µM |  | Km | 12000 µM |
| enzyme (Caenorhabditis elegans, UniProt Q86D21) | C[C@@H](O)[C@H](N)C(=O)O | steady-state kinetics |  | pH 7.5, 37 °C, with: ATP |  | Km | 2450 µM |
| SLLMWVCQV | Jurkat T cells expressing 1G4 TCR | NFAT-eGFP reporter, fluorescence microscopy | peptide | concentration not given, HLA-A*02:01 NY-ESO system |  | reporter activation | 0.913% |
| NRVDSKETEC | human MAGI1-2/6 PDZ construct (MBP fusion) | automated holdup | peptide, crude extract | concentration not given, uncorrected, unit not given | relative to: biotin control resin, higher = stronger binding | binding intensity | 0.217 |
| B2 (enzyme I20A) | N[C@H](COP(=O)(O)O)Cc1c[nH]cn1 | steady-state kinetics |  | pH 7.8, 25 °C |  | Km | 58 µM |
| enzyme (Arabidopsis thaliana, UniProt O80449) | CC/C=C\C[C@@H]1C(=O)CC[C@@H]1CC(=O)O | steady-state kinetics |  | pH 7.5, 20 °C |  | Km | 11.3 µM |
| B3 (enzyme) | Nc1nc2nc[nH]c2c(=O)[nH]1 | steady-state kinetics |  | pH 7.4, 25 °C |  | Km | 5.5 µM |
| CCT3 |  | co-immunoprecipitation | human RBC membrane | DMTMM crosslinker, unit not given, with: Band 3 peptide 1-56 bait | relative to: negative control | co-IP enrichment | 0 |
| B4 (SCO6712 Y229F) | CCn1c(=NN=c2sc3cc(S(=O)(=O)O)ccc3n2CC)sc2cc(S(=O)(=O)O)ccc21 | steady-state kinetics |  | pH 7, 37 °C, NaCl 150 mM, with: O2 cosubstrate |  | Km | 2500 µM |
| FKBP12 |  | co-immunoprecipitation | human RBC cytosol | DMTMM crosslinker, unit not given, with: Band 3 peptide 1-56 bait | relative to: negative control | co-IP enrichment | 141 |
| LAC4 (Kluyveromyces lactis, UniProt P00723) | O=[N+]([O-])c1ccccc1O[C@@H]1O[C@H](CO)[C@H](O)[C@H](O)[C@H]1O | steady-state kinetics |  | pH 6.5, 30 °C |  | Km | 1050 µM |

Some of these lines once more:
| Molecule | target or system | test | system | conditions | how to read | quantity | result |
| --- | --- | --- | --- | --- | --- | --- | --- |
| CCT3 |  | co-immunoprecipitation | human RBC membrane | DMTMM crosslinker, unit not given, with: Band 3 peptide 1-56 bait | relative to: negative control | co-IP enrichment | 0 |
| B4 (SCO6712 Y229F) | CCn1c(=NN=c2sc3cc(S(=O)(=O)O)ccc3n2CC)sc2cc(S(=O)(=O)O)ccc21 | steady-state kinetics |  | pH 7, 37 °C, NaCl 150 mM, with: O2 cosubstrate |  | Km | 2500 µM |
